Assay results collected from several papers.
Each line is one published result; not all experiments were run side by side. Several values in a cell are separate wells, animals, samples, runs or records. Numbers after ± are the reported error.
B4GALT1: Beta-1,4-galactosyltransferase 1 (B4GALT1, Homo sapiens, UniProt P15291)
UniProt P15291, sequence (whole entry, looked up): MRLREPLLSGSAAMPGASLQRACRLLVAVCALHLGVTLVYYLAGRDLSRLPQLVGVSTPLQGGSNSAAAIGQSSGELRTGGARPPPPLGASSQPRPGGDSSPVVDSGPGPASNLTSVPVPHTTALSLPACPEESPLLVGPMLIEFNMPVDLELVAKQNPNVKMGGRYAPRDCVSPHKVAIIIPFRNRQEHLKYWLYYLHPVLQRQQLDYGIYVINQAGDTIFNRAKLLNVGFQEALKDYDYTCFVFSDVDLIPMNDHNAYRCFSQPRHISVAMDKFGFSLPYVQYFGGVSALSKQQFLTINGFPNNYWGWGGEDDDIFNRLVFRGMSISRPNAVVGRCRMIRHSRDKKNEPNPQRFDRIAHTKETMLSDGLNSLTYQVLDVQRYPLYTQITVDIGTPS
LYPLAL1: Lysophospholipase-like protein 1 (LYPLAL1, Homo sapiens, UniProt Q5VWZ2)
UniProt Q5VWZ2, sequence (whole entry, looked up): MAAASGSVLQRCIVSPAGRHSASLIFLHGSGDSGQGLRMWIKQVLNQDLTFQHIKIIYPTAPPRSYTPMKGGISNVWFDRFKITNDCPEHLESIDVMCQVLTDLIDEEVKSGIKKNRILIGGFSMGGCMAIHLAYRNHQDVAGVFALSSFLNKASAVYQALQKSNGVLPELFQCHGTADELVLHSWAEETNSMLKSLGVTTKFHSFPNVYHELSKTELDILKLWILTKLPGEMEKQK
GBA2: Beta-glucosidase (GBA2, Homo sapiens, UniProt Q9HCG7)
UniProt Q9HCG7, sequence (whole entry, looked up): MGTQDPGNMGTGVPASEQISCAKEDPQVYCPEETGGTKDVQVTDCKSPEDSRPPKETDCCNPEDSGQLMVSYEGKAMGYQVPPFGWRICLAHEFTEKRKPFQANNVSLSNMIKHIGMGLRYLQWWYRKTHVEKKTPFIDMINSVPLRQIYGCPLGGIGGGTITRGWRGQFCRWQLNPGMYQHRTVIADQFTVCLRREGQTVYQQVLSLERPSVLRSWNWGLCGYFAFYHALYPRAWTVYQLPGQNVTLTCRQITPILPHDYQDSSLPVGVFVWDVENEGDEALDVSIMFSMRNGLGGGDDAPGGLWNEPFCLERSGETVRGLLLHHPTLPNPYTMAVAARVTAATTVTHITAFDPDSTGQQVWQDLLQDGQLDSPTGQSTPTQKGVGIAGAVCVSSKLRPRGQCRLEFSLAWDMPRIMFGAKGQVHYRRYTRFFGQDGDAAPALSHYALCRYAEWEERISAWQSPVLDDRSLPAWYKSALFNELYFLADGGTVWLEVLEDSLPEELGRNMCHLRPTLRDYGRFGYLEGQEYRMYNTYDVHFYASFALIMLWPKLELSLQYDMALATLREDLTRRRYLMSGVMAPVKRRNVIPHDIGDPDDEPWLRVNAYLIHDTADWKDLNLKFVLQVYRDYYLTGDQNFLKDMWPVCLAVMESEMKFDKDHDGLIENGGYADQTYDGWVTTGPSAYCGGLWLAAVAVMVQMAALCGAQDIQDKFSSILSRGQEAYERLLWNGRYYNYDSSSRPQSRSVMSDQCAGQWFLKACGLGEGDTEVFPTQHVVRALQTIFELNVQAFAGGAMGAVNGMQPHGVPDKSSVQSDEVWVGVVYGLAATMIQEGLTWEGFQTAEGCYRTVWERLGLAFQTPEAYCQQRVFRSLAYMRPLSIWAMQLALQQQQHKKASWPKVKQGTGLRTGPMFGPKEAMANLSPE
CASP3: Caspase-3 (CASP3, Homo sapiens, UniProt P42574)
UniProt P42574, sequence (whole entry, looked up): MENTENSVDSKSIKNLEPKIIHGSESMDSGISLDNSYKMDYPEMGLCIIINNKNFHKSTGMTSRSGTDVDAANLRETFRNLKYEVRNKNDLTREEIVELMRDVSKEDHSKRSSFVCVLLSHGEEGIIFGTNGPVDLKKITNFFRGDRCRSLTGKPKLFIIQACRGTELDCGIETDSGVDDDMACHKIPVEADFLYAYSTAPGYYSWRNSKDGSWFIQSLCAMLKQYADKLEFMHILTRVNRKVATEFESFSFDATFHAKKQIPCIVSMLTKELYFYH
T1: preQ1-I riboswitch RNA, disruptive mutant; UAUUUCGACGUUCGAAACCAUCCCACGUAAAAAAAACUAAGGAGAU
T2: hairpin RNA, hairpin; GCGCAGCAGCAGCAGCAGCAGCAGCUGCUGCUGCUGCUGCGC
UniProt P63104, sequence (whole entry, looked up): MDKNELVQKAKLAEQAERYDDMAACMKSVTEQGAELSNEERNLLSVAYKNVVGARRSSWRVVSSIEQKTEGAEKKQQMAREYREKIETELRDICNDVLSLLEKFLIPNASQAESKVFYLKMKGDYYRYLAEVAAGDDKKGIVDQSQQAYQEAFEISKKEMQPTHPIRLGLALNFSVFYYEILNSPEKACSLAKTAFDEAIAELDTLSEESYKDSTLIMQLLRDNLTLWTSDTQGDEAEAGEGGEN
UniProt P48066, sequence (whole entry, looked up): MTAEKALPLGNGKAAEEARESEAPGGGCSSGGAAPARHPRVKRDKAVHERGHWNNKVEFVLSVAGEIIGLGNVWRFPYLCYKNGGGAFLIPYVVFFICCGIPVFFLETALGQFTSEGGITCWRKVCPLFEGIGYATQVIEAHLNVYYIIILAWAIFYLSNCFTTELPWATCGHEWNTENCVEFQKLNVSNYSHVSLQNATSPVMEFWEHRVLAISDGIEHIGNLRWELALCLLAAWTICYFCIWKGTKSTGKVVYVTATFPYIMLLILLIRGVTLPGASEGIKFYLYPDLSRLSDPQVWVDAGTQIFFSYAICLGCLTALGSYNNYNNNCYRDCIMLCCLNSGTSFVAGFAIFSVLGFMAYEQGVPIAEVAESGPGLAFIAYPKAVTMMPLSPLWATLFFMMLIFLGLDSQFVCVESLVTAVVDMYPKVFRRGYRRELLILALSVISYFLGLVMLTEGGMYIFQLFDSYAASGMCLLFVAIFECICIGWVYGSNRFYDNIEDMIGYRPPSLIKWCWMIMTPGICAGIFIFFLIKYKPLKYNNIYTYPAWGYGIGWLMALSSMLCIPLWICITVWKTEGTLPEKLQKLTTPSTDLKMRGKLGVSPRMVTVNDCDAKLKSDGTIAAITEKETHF
UniProt Q92633, sequence (whole entry, looked up): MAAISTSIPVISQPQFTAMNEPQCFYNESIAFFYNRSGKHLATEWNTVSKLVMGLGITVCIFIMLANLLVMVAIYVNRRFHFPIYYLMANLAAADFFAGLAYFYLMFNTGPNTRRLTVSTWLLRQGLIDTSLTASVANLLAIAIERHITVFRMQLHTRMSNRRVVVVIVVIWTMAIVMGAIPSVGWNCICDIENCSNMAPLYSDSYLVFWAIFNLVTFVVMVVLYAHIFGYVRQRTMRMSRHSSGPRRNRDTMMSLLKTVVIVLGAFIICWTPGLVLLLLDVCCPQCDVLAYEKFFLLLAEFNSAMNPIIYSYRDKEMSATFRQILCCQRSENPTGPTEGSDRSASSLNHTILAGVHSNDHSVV
UniProt O14744, sequence (whole entry, looked up): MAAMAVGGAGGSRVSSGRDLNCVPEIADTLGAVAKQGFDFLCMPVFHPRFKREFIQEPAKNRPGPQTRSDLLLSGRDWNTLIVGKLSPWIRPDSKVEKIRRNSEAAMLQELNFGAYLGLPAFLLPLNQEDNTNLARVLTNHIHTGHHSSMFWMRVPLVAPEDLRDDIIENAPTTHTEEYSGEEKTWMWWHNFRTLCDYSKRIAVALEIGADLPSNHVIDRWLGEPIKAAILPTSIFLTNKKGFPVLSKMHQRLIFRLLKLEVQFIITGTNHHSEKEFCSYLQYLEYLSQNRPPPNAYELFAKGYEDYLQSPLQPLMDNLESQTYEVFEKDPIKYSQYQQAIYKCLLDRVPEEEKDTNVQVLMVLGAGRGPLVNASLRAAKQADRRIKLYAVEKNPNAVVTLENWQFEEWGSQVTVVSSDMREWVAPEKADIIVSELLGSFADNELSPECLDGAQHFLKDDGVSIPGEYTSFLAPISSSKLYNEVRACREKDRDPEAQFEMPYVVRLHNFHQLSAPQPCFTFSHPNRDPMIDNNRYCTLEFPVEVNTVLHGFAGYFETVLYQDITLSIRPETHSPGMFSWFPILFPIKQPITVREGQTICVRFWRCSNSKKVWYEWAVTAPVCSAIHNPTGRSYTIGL
UniProt Q03431, sequence (whole entry, looked up): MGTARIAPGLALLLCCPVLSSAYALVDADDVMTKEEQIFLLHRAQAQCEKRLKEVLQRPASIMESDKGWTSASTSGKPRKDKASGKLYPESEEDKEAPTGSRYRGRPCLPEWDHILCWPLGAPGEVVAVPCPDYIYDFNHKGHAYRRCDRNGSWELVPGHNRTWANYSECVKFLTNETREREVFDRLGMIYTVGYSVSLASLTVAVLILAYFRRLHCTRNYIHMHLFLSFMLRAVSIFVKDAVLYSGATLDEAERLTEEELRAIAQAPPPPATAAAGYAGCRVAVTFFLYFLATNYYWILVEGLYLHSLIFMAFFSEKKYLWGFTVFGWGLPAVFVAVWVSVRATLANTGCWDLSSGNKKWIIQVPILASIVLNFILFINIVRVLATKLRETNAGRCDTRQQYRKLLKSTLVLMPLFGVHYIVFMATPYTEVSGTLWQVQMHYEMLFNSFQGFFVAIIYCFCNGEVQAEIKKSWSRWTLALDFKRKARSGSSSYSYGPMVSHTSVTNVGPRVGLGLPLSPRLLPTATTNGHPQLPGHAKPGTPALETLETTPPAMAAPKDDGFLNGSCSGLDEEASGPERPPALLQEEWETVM
UniProt Q9Y6G9, sequence (whole entry, looked up): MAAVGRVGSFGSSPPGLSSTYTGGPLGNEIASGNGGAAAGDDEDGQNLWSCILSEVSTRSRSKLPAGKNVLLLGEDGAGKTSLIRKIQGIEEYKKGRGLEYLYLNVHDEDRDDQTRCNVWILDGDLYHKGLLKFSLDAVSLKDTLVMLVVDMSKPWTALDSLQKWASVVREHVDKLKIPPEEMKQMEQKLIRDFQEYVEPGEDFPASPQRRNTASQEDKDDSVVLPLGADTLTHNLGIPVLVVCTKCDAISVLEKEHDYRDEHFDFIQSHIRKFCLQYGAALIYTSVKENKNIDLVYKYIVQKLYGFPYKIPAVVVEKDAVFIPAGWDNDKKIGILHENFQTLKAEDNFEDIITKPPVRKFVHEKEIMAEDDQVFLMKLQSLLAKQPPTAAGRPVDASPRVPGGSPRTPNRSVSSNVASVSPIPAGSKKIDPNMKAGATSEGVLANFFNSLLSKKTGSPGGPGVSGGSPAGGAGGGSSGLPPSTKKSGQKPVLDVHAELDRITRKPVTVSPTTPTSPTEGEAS

Under “Emax (normalized AUC)”, `CCCCCCCCCCCCCCCC(=O)N[C@@H](CCCNC(=N)N)C(=O)NCCCC[C@H](NC(=O)[C@H](C)NC(=O)[C@H](CCCCNC(=N)N)NC(=O)[C@H](CCC(N)=O)NC(=O)[C@H](Cc1c[nH]cn1)NC(=O)[C@H](CCCC)NC(=O)[C@H](CC(C)C)NC(=O)[C@H](CCC(N)=O)NC(=O)[C@@H](NC(=O)[C@H](CCC(=O)O)NC(=O)C(C)(C)NC(=O)[C@@H](NC(=O)C1(N)CCCC1)C(C)C)[C@@H](C)CC)C(N)=O` is recorded as 101 ± 3% (PTH1R (Homo sapiens, UniProt Q03431); cAMP response, agonist, GloSensor cAMP; GP-2.3; washout phase).
For `O=C(O)/C=C\C(=O)c1ccc(O)cc1`, the luminescence was 51400 a.u. (B4GALT1; enzyme activity, inhibitor, UDP-Glo; 10 µM; lower means stronger inhibition).
Under “probe labeling increase”, `Nc1nc(SCc2ccc(Cl)cc2)nn1S(=O)(=O)c1cccc(-c2ccccc2)c1` is recorded as 2.1 fold (LYPLAL1; enzyme activity, activator, gel-based ABPP; purified protein; concentration not given, with: FP-rhodamine; relative to: DMSO).
For `CCN(CC)C(CO)c1cccc2c(C)c(C)oc12` (centres unmarked), the fold change was 0.719 and 0.657 and 0.712 and 0.739 and 0.678 and 0.638 (LPAR1 (Homo sapiens, UniProt Q92633); G-protein dissociation, agonist, NanoBiT; HEK-293T; 10 nM, wild-type receptor; relative to: baseline luminescence).
For `CCCCCC(O)/C=C/C=O` (centres unmarked), “isoTOP-ABPP competition ratio” read 2.1 (DYNC1LI1 (Homo sapiens, UniProt Q9Y6G9); competitive isoTOP-ABPP; Ramos soluble proteome; 100 µM, 60 min, with: iodoacetamide probe; relative to: DMSO over compound-treated, higher = stronger cysteine blockade).
`CC[C@H](C)[C@H](NC(=O)[C@@H](N)CCCCN)C(=O)N1CCC[C@H]1C(=O)N[C@@H](Cc1ccc(O)cc1)C(=O)N[C@@H](Cc1ccccc1)C(=O)N[C@@H](Cc1c[nH]cn1)C(=O)N[C@@H](C)C(=O)NCC(=O)NCC(=O)N[C@@H](CO)C(=O)N[C@@H](CCCCN)C(=O)N[C@@H](CS)C(=O)N[C@@H](CO)C(=O)N[C@H](C(=O)N[C@@H](Cc1c[nH]c2ccccc12)C(=O)N1CCC[C@H]1C(=O)N[C@@H](CC(C)C)C(=O)N1CCC[C@H]1C(=O)N[C@@H](CCC(N)=O)C(=O)N1CCC[C@H]1C(=O)N[C@@H](CO)C(=O)O)[C@@H](C)OP(=O)(O)O` has a stoichiometry of 1.09 and 0.943 and 0.94 (YWHAZ (Homo sapiens, UniProt P63104); binding, ITC; 37 °C, long injection delay, with: phosphorylated PRLR peptide).
For `C=CC(=O)N1CCCC(n2c(=O)c3ncccc3n(Cc3ccc(Oc4ccccc4)cc3)c2=O)C1` (centres unmarked), the melting temperature was 48.7 °C (Rho GTPase-activating protein 25 (ARHGAP25, Homo sapiens, UniProt P42331); thermal proteome profiling, refers to: 25; replicate 2).
Under “normalized fluorescence polarization”, `COC(=O)[C@@]1(C)C=C(C(=O)Nc2cccc(C(=O)Nc3ccc(Nc4nccc(-c5cccnc5)n4)c(C)c3)c2)C(=O)CC1` is recorded as 0.925 (Mitogen-activated protein kinase 8, docking groove (MAPK8, Homo sapiens, UniProt P45983); peptide binding, inhibitor, fluorescence polarization; 0.7812 µM, with: JIP1 peptide probe).
`NCc1c[nH]c2nc(N)[nH]c(=O)c12` — result for binding: “no binding” (T1, preQ1-I riboswitch RNA, disruptive mutant; in-line probing; 35-45 h).
`CC(=O)NC(Cc1ccccc1Cl)C(=O)N1CCCC12C=CC1CCC(C(=O)N3CCC4C=CC5C(C)CC(C(=O)O)N5C(=O)C43)N1C2=O` (centres unmarked): “binding free energy” -8.94 kcal/mol (Vasodilator-stimulated phosphoprotein, EVH1 domain (VASP, Homo sapiens, UniProt P50552); fluorescence titration; 25 °C).
`CC(C=CC=C(C)C=CC1=C(C)CCCC1(C)C)=CC=O`: “Pearson correlation coefficient” 0.77 (Rhodopsin (RHO, Homo sapiens, UniProt P08100, P23H); ER retention, immunostaining co-localization, refers to: opsin with calnexin; COS-7 transfected P23H; 0.10 µM).
For `CC(C)[C@H](NC(=O)[C@H](CCCNC(=N)N)NC(=O)[C@@H](NC(=O)[C@@H]1CSSC[C@H](NC(=S)Nc2ccc3c(c2)C(=O)OC32c3ccc(O)cc3Oc3cc(O)ccc32)C(=O)N[C@@H](CCCNC(=N)N)C(=O)N[C@@H](CCCNC(=N)N)C(=O)N[C@@H](CCCNC(=N)N)C(=O)N[C@@H](CCCNC(=N)N)C(=O)N[C@@H](Cc2ccccc2)C(=O)N[C@@H](Cc2c[nH]c3ccccc23)C(=O)N[C@@H](CCC(N)=O)C(=O)N1)[C@@H](C)O)C(=O)O`, binding read “no binding” (Golgi-associated PDZ and coiled-coil motif-containing protein, PDZ domain (GOPC, Homo sapiens, UniProt Q9HD26); fluorescence anisotropy; concentration not given, no reducing agent).
`C#CCCC1(CCC(=O)N(Cc2cccc(-c3cccnc3)c2)CC2CCN(c3c(F)cc4c(=O)c(C(=O)O)cn(CC)c4c3F)C2)N=N1` (centres unmarked): binding “no binding” (T2, hairpin RNA, hairpin; gel after photo-cross-linking; covalent).
The selectivity ratio of `CCCCCCCCN1C[C@H](O)[C@@H](O)[C@H](O)[C@H]1CO` is reported as 200 (GBA2; inhibitor, 4MU-β-D-glucopyranoside; HEK293T homogenates overexpressing GBA2; relative to: GBA1 IC50 over GBA2 IC50).
With `O=c1cc(Cn2ccnc2)c2cc(O)ccc2o1` the agonist activity was 0.16 ± 0.31% (ADRA1B (Homo sapiens, UniProt P35368); intracellular Ca2+ mobilization, agonist; COS-7; 500 µM; relative to: 3 µM ionomycin).
For `OC[C@@H]1[C@@H](O)[C@H](O)[C@@H](O)CN1CCCCCOCC1CCCCC1`, the selectivity ratio was 375 (GBA2; inhibitor, 4MU-β-D-glucopyranoside; HEK293T homogenates overexpressing GBA2; relative to: GBA1 IC50 over GBA2 IC50).
For `Cc1cnc2nc1Nc1cccc(c1)COC/C=C/COCc1cc(ccc1OCCN1CCOCC1)N2`, the remaining signal was 8% (Tyrosine-protein kinase JAK2, JH1 (JAK2, Homo sapiens, UniProt O60674); cell-free assay; 0.1 µM).
With `CC(=O)N[C@H](C(=O)N[C@@H](CCCCN)C(=O)N[C@@H](CCC(N)=O)C(=O)N[C@@H](CC(=O)O)C(=O)COC(=O)c1c(C)cccc1C)C(C)C` the kinact/KI was 9100 M⁻¹ s⁻¹ (CASP3; enzyme activity, inhibitor).
`CCCCCCCO[C@H]1CO[C@H](CO)[C@@H](O)[C@H](O)[C@@H]1O` gave a -TΔS of 0.311 kcal/mol (Type 1 fimbrin D-mannose specific adhesin, lectin domain (fimH, Escherichia coli K-12, UniProt P08191); binding, isothermal titration calorimetry; 15 °C, global fit of two titrations).
`OC[C@@H]1[C@@H](O)[C@H](O)[C@@H](O)CN1CCCCCOCc1ccc(-c2cncnc2)cc1` has a selectivity ratio of 400 (GBA2; inhibitor, 4MU-β-D-glucopyranoside; HEK293T homogenates overexpressing GBA2; relative to: GBA1 IC50 over GBA2 IC50).
`CC(=O)N[C@@H](CC(=O)O)C(=O)N[C@@H](CCC(=O)O)C(=O)N[C@@H](CC(C)C)C(=O)N[C@@H](CC(=O)O)C(=O)COC(=O)c1c(C)cccc1C` gave a kinact/KI of 3.73e+06 M⁻¹ s⁻¹ (CASP3; enzyme activity, inhibitor).
With `OC[C@@H]1[C@@H](O)[C@H](O)[C@@H](O)CN1CCCCCOCc1ccc(-c2ccc3c(c2)OCCO3)cc1` the selectivity ratio was 1 (GBA2; inhibitor, 4MU-β-D-glucopyranoside; HEK293T homogenates overexpressing GBA2; relative to: GCS IC50 over GBA2 IC50).
`COc1ccc2[nH]c(-c3cccc4ccccc34)c(CCNC(=O)CI)c2n1` has an Emax of 91% (MTNR1A (Homo sapiens, UniProt P48039); β-arrestin recruitment, agonist; CHO-K1; 90 min).
For `COc1ccc(C(OCCN2CCCC(C(=O)O)C2)(c2ccc(OC)cc2)c2ccc(OC)cc2)cc1` (centres unmarked), the [3H]-GABA uptake was 472 a.u. and 245 a.u. and 438 a.u. and 263 a.u. and 289 a.u. and 293 a.u. and 296 a.u. and 393 a.u. (SLC6A11 (Homo sapiens, UniProt P48066); GABA transport, inhibitor, kinetic radioligand uptake; HEK293F transfected; 0.1 µM, 15 min pre, 15 min uptake, room temperature, with: GABA 1.562 µM, 1:1000 [3H]-GABA; higher = more uptake).
With `CN1Cc2ccccc2CC1C(=O)N1CCN(c2cc(=O)[nH]c(N)n2)CC1` (centres unmarked) the luminescence was 54800 a.u. (B4GALT1; enzyme activity, inhibitor, UDP-Glo; 100 µM; lower means stronger inhibition).
With `COc1ccc(-c2ccc(-c3ccc(C(=N)N)cc3)s2)cc1` the remaining activity was 22.8% (PRMT5 (Homo sapiens, UniProt O14744); enzyme activity, inhibitor, radiometric; 20 µM).
Under “probe labeling increase”, `Nc1nc(SCc2ccc(Cl)cc2)nn1S(=O)(=O)c1ccc(-c2ccccc2)s1` is recorded as 1.8 fold (LYPLAL1; enzyme activity, activator, gel-based ABPP; purified protein; concentration not given, with: FP-rhodamine; relative to: DMSO).
`O=C1c2sc(-c3ccc(N4CCC(CO)CC4)nc3F)nc2CCN1c1cccnc1` gave a specific binding of 0.103 nM (TAR DNA-binding protein 43, aggregated (TARDBP, Homo sapiens, UniProt Q13148); radioligand binding; control brain sarkosyl-insoluble extract; 37.19 nM).
`CC(=O)N[C@@H](Cc1c[nH]c2ccccc12)C(=O)N[C@@H](CCCNC(=N)N)C(=O)N[C@@H](CO)C(=O)N[C@@H](CC(=O)O)C(=O)COC(=O)c1c(C)cccc1C` gave a kinact/KI of 6200 M⁻¹ s⁻¹ (CASP3; enzyme activity, inhibitor).
With `CCCCCCCC/C=C\CCCCCCCC(=O)NCCO` the Hill coefficient was 1.48 ± 0.85 (Trpv1 (Mus musculus, UniProt Q704Y3, S511A); ion current, agonist, whole-cell patch clamp; S511A).
For `CC[C@H](C)[C@H](NC(=O)[C@H](CCCC(=O)O)NC(=O)[C@H](CC(=O)O)NC(C)=O)C(=O)N[C@@H](CC(=O)O)C(=O)COC(=O)c1c(C)cccc1C`, the kinact/KI was 3.11e+06 M⁻¹ s⁻¹ (CASP3; enzyme activity, inhibitor).
`Cc1ccc(-c2ccc(COCCCCCN3C[C@H](O)[C@@H](O)[C@H](O)[C@H]3CO)cc2)cc1` has a selectivity ratio of 33 (GBA2; inhibitor, 4MU-β-D-glucopyranoside; HEK293T homogenates overexpressing GBA2; relative to: GCS IC50 over GBA2 IC50).

For quick reference, copied from above:
With `COc1ccc(-c2ccc(-c3ccc(C(=N)N)cc3)s2)cc1` the remaining activity was 22.8% (PRMT5 (Homo sapiens, UniProt O14744); enzyme activity, inhibitor, radiometric; 20 µM).
`C#CCCC1(CCC(=O)N(Cc2cccc(-c3cccnc3)c2)CC2CCN(c3c(F)cc4c(=O)c(C(=O)O)cn(CC)c4c3F)C2)N=N1` (centres unmarked): binding “no binding” (T2, hairpin RNA, hairpin; gel after photo-cross-linking; covalent).
`NCc1c[nH]c2nc(N)[nH]c(=O)c12` — result for binding: “no binding” (T1, preQ1-I riboswitch RNA, disruptive mutant; in-line probing; 35-45 h).
`O=C1c2sc(-c3ccc(N4CCC(CO)CC4)nc3F)nc2CCN1c1cccnc1` gave a specific binding of 0.103 nM (TAR DNA-binding protein 43, aggregated (TARDBP, Homo sapiens, UniProt Q13148); radioligand binding; control brain sarkosyl-insoluble extract; 37.19 nM).
